Measured values from different studies.
A part holds a random share of what one study measured. Positions count from the first letter of the parent shown.

Set 1
Target: CCNF, cyclin fold, Cln2 fusion (human)
Technique: yeast growth competition, sequencing
Sample: yeast
Notes: weak parent motif
Relative to: not given
Direction: higher = stronger binding
Parent: PKN2 docking peptide (human); VSAVQKLDFSDTM
Change | normalised enrichment score
D11S | 1.17
T12C | 0.887
S10V | 0.264
T12A | 0.869
T12D | -0.363
V1C | 1.74
M13I | 0.65
S2A | 0.953
F9E | -0.562
T12K | 0.601
D11N | 1.04
S2C | 0.295
L7R | -0.0815
F9R | 0.718
S2N | 0.755
S2V | -0.272
D8H | 0.423
T12H | 1.07
D8E | 0.572
K6V | 0.954
S10I | 0.593
D11I | 0.403
V4I | 0.495
F9K | 0.214
S10M | 0.0945

Set 2
Target: Prothrombin, mature alpha-thrombin (F2, Homo sapiens, UniProt P00734)
Technique: aptamer microarray, sandwich
Form: DNA with 2'F-ANA
Sample: in vitro
Concentration: 200 nM
Notes: whole 15-mer aptamer, many near background
Added: Cy3 exosite-II aptamer, 400 nM
Direction: higher = stronger binding
Strand: GGTTGGTGTGGTTGG
Modification | mean fluorescence intensity [a.u.]
2'F-ANA at 2 4 5 9 10 11 13 14 15 | 45.4
2'F-ANA at 5 10 13 14 | 151
2'F-ANA at 1 2 3 5 6 10 13 14 15 | 44.4
2'F-ANA at 2 3 4 7 9 10 12 13 15 | 251
2'F-ANA at 1 2 3 6 7 8 9 11 12 14 15 | 81
2'F-ANA at 1 4 5 6 7 8 10 14 15 | 51.2
2'F-ANA at 2 3 5 7 9 11 12 15 | 254
2'F-ANA at 2 3 8 9 12 13 14 15 | 441
2'F-ANA at 1 2 4 6 7 12 | 239
2'F-ANA at 1 3 5 6 | 62
2'F-ANA at 3 4 5 6 7 11 | 74.7
2'F-ANA at 2 5 8 10 11 12 15 | 103
2'F-ANA at 2 5 7 9 10 11 14 | 42.2
2'F-ANA at 2 4 5 6 7 8 11 12 13 15 | 80.7
2'F-ANA at 1 3 4 6 7 8 10 14 | 55.7
2'F-ANA at 1 3 4 7 8 9 10 15 | 66.2
2'F-ANA at 3 6 7 8 9 10 11 13 14 | 352
2'F-ANA at 1 2 3 4 5 8 9 10 11 12 13 | 54.4
2'F-ANA at 2 4 5 6 8 13 14 15 | 47.7
2'F-ANA at 2 6 8 12 | 799
2'F-ANA at 1 3 4 7 9 10 11 13 14 | 50.8
2'F-ANA at 1 3 6 7 9 10 11 14 15 | 70.1
2'F-ANA at 1 3 4 5 6 8 9 10 12 13 15 | 51.6
2'F-ANA at 1 2 4 5 7 9 14 | 48
2'F-ANA at 1 2 4 6 7 9 15 | 118

Set 3
Target: Hepatocyte nuclear factor 3-alpha (Foxa1, Mus musculus, UniProt P35582, residues 1-468, full length assumed)
Sequence of UniProt P35582 (whole entry, looked up): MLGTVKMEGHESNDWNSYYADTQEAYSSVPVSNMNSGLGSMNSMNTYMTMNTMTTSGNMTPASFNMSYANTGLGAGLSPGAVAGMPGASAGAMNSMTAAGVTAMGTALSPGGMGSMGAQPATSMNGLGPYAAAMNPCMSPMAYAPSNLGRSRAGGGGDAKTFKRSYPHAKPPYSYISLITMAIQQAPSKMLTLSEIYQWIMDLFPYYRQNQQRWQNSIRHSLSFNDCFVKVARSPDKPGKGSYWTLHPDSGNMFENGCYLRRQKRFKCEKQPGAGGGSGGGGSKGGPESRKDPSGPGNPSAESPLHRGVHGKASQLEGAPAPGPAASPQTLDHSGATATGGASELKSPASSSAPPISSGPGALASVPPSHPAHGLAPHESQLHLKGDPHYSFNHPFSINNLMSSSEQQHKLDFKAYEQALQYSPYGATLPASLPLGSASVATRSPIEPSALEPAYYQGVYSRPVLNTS
Technique: EMSA with sequencing
Form: double-stranded DNA, one strand shown
Sample: in vitro
Concentration: 10 and 20 nM
Notes: whole designed probe, mean of two concentrations, ends assumed
Relative to: negative control set to 0
Direction: higher = stronger binding
Constant ends, left off below: GTGAGCGGTGCCCATTGATGGGGAAC … TTTCACTGGGATCGTGGGGAC
Strand | normalised bound fraction
CTCAGATGGAACAGATGACCAGGGGTGACTCAGGACAGAGCAGGTGACCAGGGGAACAGATGTGAACTGCTGATTAGAACTGGTGGAAAAAGTTGTTTACTGAAACTATGGGCGAGGAGAATGAGGAAGTTAAACTTTAAAATGGAGAACAAAGAACTGAACATACTGACATACTGATTCTTTGAAGAGAAAT | 0.116 ratio
CCCTCAAGACACATAATATTTGCAGAATTCTGTGGACAGAGGATTTAGTACACACTGCTTTCATCCTGTGATTGCCCTAAGTACTTTCAGAAATGTAATCTGTCCTGACACATGTGGTCTTTGAATATGGTCAAACACCTCATTCTTCAGCTTTGGTATCTCATAACAAATTGTTGCATAAAGTATGAAAAAT | 0.0576 ratio
CACAAAGCAACTAGACAAATATTGATTTTGTAGTTACTGTAAAGGATTGAACAAAAATATGAAGAGCAGAGTTTCTACTCAAATGTGATCAAAGTCAACACTGAGGATCTGACCAGATTAAAACAATGCTACTAACCTGGATAAGGTGGCATCCCCCGAAAGACTATTTTCTTACCCTTTTTTGTTTGTTTGA | 0.426 ratio
AGTGAGAACTTTACTTTCAAAATAAGCTGATGGTGTTATATACATCATAAATTTAATTGCGCCCACTAAGCAAATAGAGCCAATATGTTTTATGTTTACTTTGATTCTAATCAAAACAACTCCTAGCCAGCTTGTCTTAGATAATCTAAATAATTTCATGTTAAAAAACATTGAGGCAGTATATATATATATA | 0.49 ratio
TGAACAAAAAAAACAAAAATAAAAAACAAAAACAAGAGCATACAGTTTCAAAAGCACACTGGATGGAAATGTCAGATAGTGTCAGAAAAACATGTTTACTTTGTGAAGAAAGAGATTATTTATACTTTGTGGGGACAAGTTAATTATCCCCTGCCTTAGAGGAGATGTCATTCCATTCTAGATATTTTTGGTA | 0.43 ratio
ATCTTCCCCCTCTTCCTTGCCCCACCAGCTCACCTACGGGGGTTATTTGCAGATAGGAAAATAAATAAAGCCGGCATTCGTTAACGCAGTTCTGGCGCAAACTGCTGTTTGCTCTGCATCTAACATGGTCCTTACGCGAGGCGTGGCTCCGGGAGAGCAAAGCACCGTGTCAGGCGCATGATCCGGGGTGGCC | 0.36 ratio
AAGAAAGAAATTTCCCATCCAGATTACAAAATTATTCCTGGTCAAAGGGGCCTTTATAAATGCAATTTCCTAATCCAATCAAAAGACCACAAAAGTAAACAGGGAATTTCTCTGCTTTGGTTTAAAATTGTTTGTTTAAAATTACATGTGTGTGTGTAGGTATATACACATATATAAATATATTATAGACACT | 0.431 ratio
ATACAGCCTAGAACTCCTGGGCTCAAAAGATCCTCCCACCTCAGCCTCCTGAGTAGCTAGGACTACAGAGGCGCATGCCAACATGTGTGGCAATATTTACTTATTTATTTAGAAAAGAGGTCTCGCTTTGTTGCCCAGGCTAGTGTGCAGTGGCGCAATCTTGGCTCACTGCAACCTCTTCCTCCCAAGTTCA | 0.415 ratio

Set 4
Target: ABI1, truncated, D143A, DHFR fusion (Arabidopsis thaliana)
Technique: DHFR PCA, deep sequencing
Sample: yeast
Notes: methotrexate growth selection, single substitutions
Added: (+)-ABA 2500 µM
Relative to: wild-type fitted maximum
Direction: higher = stronger binding
Parent: PYL1, truncated, DHFR fusion (Arabidopsis thaliana); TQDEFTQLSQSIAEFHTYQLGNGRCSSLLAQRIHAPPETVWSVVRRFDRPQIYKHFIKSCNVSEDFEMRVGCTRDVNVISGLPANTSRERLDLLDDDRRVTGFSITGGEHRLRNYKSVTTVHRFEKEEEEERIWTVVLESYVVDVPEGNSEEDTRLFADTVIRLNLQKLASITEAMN; partner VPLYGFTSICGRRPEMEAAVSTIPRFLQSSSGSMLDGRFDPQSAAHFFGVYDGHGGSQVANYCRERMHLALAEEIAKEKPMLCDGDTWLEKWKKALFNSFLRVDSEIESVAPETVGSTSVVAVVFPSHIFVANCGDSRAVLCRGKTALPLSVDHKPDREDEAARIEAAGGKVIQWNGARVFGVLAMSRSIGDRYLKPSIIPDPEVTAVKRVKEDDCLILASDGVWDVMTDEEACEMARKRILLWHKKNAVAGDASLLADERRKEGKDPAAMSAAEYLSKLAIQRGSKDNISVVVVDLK
Change | relative binding score [%]
V76Q | 58.5
R46K | 91.1
K126Y | 99.8
T73H | 98
N149I | 72.6
T154Q | 62.1
D3E | 89
G71L | 73.8
I79P | 82.3
F15M | 86.7
S150P | 66.9
S80A | 79.5
N22H | 104
T160H | 93.8

Set 5
Target: RNA binding protein fox-1 homolog 2, RRM domain, GST-SBP tag (RBFOX2, Homo sapiens, UniProt O43251-10, residues 100-194)
Technique: RNA Bind-n-Seq
Form: RNA
Sample: in vitro
Concentration: 365 nM
Notes: natural RNA segment, single round, ends assumed
Relative to: no-protein control
Direction: higher = stronger binding
Constant ends, left off below: GGGAGUUCUACAGUCCGACGAUC … UGGAAUUCUCGGGUGCCAA
Residues (chain): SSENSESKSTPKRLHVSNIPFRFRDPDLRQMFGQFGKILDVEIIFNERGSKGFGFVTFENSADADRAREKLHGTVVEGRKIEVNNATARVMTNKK
Strand | RBNS enrichment (R)
GCACACAGAGUUCAUGUUUGCGCCCUCUCCCUGCCCCUCACCCCAGAGGGUGAGGAGGAAUGAGGGGCAUUGGUGGUUAGGCCGGUUGGCUGUCUUGAACAGCUGGAGGG | 1.47
UUUUUCACAGAACUGGUGUCAGGAAUCACUGAAGGGCUAACCGUGAUAGUCCUUGCAAGUAAGUCAAGGUUUUAUCCUGAUUGGAAAUAGAAGACAUUUCCGGUUGAGAG | 0.534
AGACUCCAGCGAGUCUCGGGAAGCCCAGGGGACCUGUCACCAUCUGGGCACUUCCCAGGCUCAAUGCUCAGCCAGAGUUUGCUGGUGGACCUCAGGAUUCGAAGUGUGCA | 11.7
AGCCUGGCCUGCCCAGCCCUGGUCAUCCAGCUGUACUGGCCCCUGGGGGGCCCCUUUGGGAGCAGGCCUGUGUAUCAGGUGACUUCUGUUGACCACUCUCUGAAUAGGCU | 0.243
CUGCUGCUUCUGCAUUGCUCCGCGCUCUUGUGAAAUACUGGUUCUGUUUUCUUUAUUCCUUUUGCACUCUCGGUUCCCACCUUUGUGUUGGAGUUUACCAUGUUACCCUG | 0.953
CGGGGACCCACUCUGCCCAGCCGGAGGGACGCGGAGGAGGAAGAGGGUAGACAGGGGCGACCUGUGAUUGUUGUUAUUGAUGUUGUUGUUGAUGGCAAAAAAAAAAAAGC | 0.811
AAGGGAGGAUCUUCUUCAGUUGUAGUUUGGAAGGUUCCUUGGUGUGGCUCAUGAAAUCACAGAGCUCAGAGAUACCAUCUUGAGAAAUCCUCCUUGGUAUCAUGAAACUG | 0.839
AGGGUGGGGGUUGGGGGAAGCUUGACCUUGUGUCUUCGUCAAUAAACUCACAUUUACACAAAAUGAAGUUUGUGGUAUGUAUUUUUUUCCCCAGAACUGACAUUCUAGGA | 0.546
UUUCCUUCUCGUUCCUAUUCUCCGUCCUCCACAUGCAGUCCUUUGCUCAGGAAGUCUUUGGGGAAACUAAUGACCUGCAAAUUUGAAGUGGGUGACUGGCUUGGUGGCUU | 0.409
ACAGAGCAGCAUCUGAUGCCCUGUGGUGUUUGGCAUGUGCCCCCUGUCUACUGACCAAUCAGUGUGGCAUGAGGCCCACGCCACCCAAACCUUUCACUUUCCAAAGAGCU | 0.199
UCAAAAAAAAAAGGUGGGUAAAGGGCCAUGAGCCCAAACCACUAGGUUGUUCACCUUUUCAUCUGAAAAUGCUUUACUCUGACUAUGUGCUAUUGGGUUUUAUUUCCAGA | 0.455
GACAGAACUGGUUCAUGUGUUAUGAGAGAGGAAAAGAGAGGAAAGAACAAAACAAAACAAAACACCACAAACCAAAAACAUCUGGGCUAGCCAGGCAUGAUUGCAAUGUC | 1.16

Other studies, line by line
Substance | target | test | test system | conditions | scale | quantity | value
PhoQ, residues 284 288 289 292 302 303 GANMMA | PhoP, residues 12 14 15 18 19 NMSFL (Escherichia coli, UniProt P23836) | Sort-seq, item: YFP reporter | E. coli | PhoQ-PhoP variant library, added: 10 µM Mg2+ | relative to: high Mg2+ state, higher = stronger signaling | fold induction | 2.53
